Results collected from several papers.
Each numbered part is a random draw from the data of one study; scales do not carry over between parts. Changes are numbered by the printed parent chain.

Series 1 — method: DHFR PCA, deep sequencing; medium: yeast; with: (+)-ABA 17 µM; baseline: wild-type fitted maximum; direction: higher = stronger binding
Target: ABI1, truncated, D143A, DHFR fusion (Arabidopsis thaliana)
Notes: methotrexate growth selection, single substitutions
Starting sequence: PYL1, truncated, DHFR fusion (Arabidopsis thaliana); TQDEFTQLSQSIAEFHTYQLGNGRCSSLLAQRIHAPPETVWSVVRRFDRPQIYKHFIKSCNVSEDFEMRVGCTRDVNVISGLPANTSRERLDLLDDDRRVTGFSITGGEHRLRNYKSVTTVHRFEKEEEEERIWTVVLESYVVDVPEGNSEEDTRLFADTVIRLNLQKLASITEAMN
| Substitution | relative binding score |
| --- | --- |
| P37H | 20% |
| F5V | 82.8% |
| M176C | 70.3% |
| R49F | 45.8% |
| C25K | 3.62% |
| R132Y | 78.7% |
| S26E | 25.7% |
| D3G | 76.9% |
| Q10T | 80.7% |
| T173L | 49.2% |
| S80M | 20.8% |
| S150R | 33.7% |
| G71S | 17.3% |
| E147T | 72.5% |
| I79T | 70.9% |
| S171W | 66.2% |
| M68T | 66.1% |
| Y141A | 1.99% |
| H110L | 6.65% |

Series 2 — method: RNA Bind-n-Seq; molecule type: RNA; medium: in vitro; tested at: 365 nM; baseline: no-protein control; direction: higher = stronger binding
Target: RNA binding protein fox-1 homolog 2, RRM domain, GST-SBP tag (RBFOX2, Homo sapiens, UniProt O43251-10, residues 100-194)
Notes: natural RNA segment, single round, ends assumed
Shared flanks, not repeated: GGGAGUUCUACAGUCCGACGAUC … UGGAAUUCUCGGGUGCCAA
Target sequence (chain): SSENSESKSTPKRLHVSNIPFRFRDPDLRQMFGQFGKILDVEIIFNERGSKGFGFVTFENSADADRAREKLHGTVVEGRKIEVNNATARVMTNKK
| Strand | RBNS enrichment (R) |
| --- | --- |
| UUAGCACUGGGGACACUUAAAGUCUCUGCUGUCUAUGGAGUUGAUUUGGAAAUACCUUCCUGGCCCCGCCCCUACCCCUUCUUUUUGGUUUUGACAUCACCCAUUUCCAA | 0.292 |
| GUCUUCUAAUUGUCUUUGUCUAGAUGGAAACUGAACCUUAGCAGAUGAAUAAACCCUGAAAAGGUCAUUGUGUGCUGUGGUCUGUGGUGACUUAGCCCUCCCAGGCAUUG | 0.556 |
| ACAGACAGGUGGAACUGCCAGUGUAAGGGAAUUCUAAGGUGGACGCACAGAACAGUCUCUCCGUGGGAGGAGACAUUAUGGGGCGUCCACCACCACCCCUCCCUGGCCAU | 0.324 |
| UAGUACUAAAAUACUGUAGAAUUUUAGCAUUUUUAUUUUGCACUUUGUGUGGAUUGAGGUGUUCAGAAAUACCAACCAUAAAAAUGUAAUCUAGUUGGCAAAGGUGUGCG | 1.24 |
| AAUGGGUAAUAAGGUGCAAAAUAAAGGGGUAAGGGGGGAGUUUUCUAUCUGUCCUGUUCUCUGUUAUCUCCAAGUCCUGAUUCUGUUGCCUCCAGCCCGAGCCUCCUCUC | 0.217 |
| AAUCUGAAUCAUCACUUUAGGGUAUCCAUAGCCUAAGAAAUGUGUCAGAAGAUCUAAAGCCUUCCUUCAUAUUCCAGUUCUGUGAGUCCCUAACAGCAGGCAGCAUCCAU | 1.11 |
| UGGUAAGAGUCUUUAUUAAAGUUUUAAGUGUCUAAAGGGACUGUCCACGCCUGUACAUUUCAGAUGGCAGCGAUUUGGGUCCUUGGGGCUUUUGGCCCUUGGCCAGAAGU | 0.367 |
| UACAUAUAUAGAGAUAAUUCUCAAUGCCUAAUUAAUAUACUUAUACAUUUGUUAAGGUAUGCGCAUAAUUACAGCAACUGUUUUUAUAGUUUGUAUCCCAGAGUAUACUG | 0.262 |
| CUAAGGUCUUGUGCCAGCAUCUACCCACACCUGGUUCUGUUCACUGUGGUCUGCCCACACCUGUCUACUCUGGCAUGUGUCAGGAAAAGGAGCGUCAAAGGUGACCUUUA | 1.92 |
| UCCGUCCCCAAUCUAAAAAGCAAUUGAAAAGGUCUAUGCAAUAAAGGCAGUCGCUUCAUUCCUCUCAGACCUUCUGCCCUUCCUCCAUCCGACAGCCCGCGGGAGGACUC | 0.82 |
| AAGGCCUUUGACCCAUGUCAUCUGAGCGUCUCCUCCAGUAGCUCUGAAAGCUGUGGACACCAAUGGCCAGGAUUCCUUCUCCCCUGGUUUUUGAGGAUCCCUGGGUCUUC | 0.202 |
| GUAUUUCAUUGCAUGGGCGUACUACUCUGCUUCUUUAUUUUUACACUGAGCCUUUCGCCCUGGAAGUUCUUGGCCCAGGGUCUUCAACUUGUUUGCACGACCACUUCCAG | 4.68 |

Series 3 — method: protein binding microarray; molecule type: double-stranded DNA, one strand shown; medium: in vitro; tested at: not given; baseline: not given; direction: higher = stronger binding
Target: Histone acetyltransferase KAT6A, winged helix 1, GST fusion (KAT6A, Homo sapiens, UniProt Q92794, residues 1-85)
Notes: 8-mer, flanks averaged, mean of 2 arrays, mostly near background
Target sequence (chain): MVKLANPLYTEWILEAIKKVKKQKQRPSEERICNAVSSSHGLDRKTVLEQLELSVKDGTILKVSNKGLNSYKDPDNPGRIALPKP
| Strand | E-score |
| --- | --- |
| AAACAGGG | -0.0741 |
| GATCCATC | -0.0828 |
| ACTGTGGA | -0.163 |
| GGCGGCAA | 0.355 |
| CCTACCCC | 0.0165 |
| ACCATTTA | -0.0634 |
| CAGAATAA | -0.154 |
| ATCGGTTA | 0.0813 |
| GCTAAGGA | -0.0169 |
| ATTCAACA | -0.106 |
| ATTCAAGC | -0.0591 |
| ACAGACTC | -0.0995 |
| CAAATTAA | -0.114 |
| GGCTTTTA | -0.000695 |
| CCATCTAA | -0.118 |
| AAGTGCTC | -0.163 |
| CAGTCTCC | -0.071 |
| ACAAGTCG | -0.145 |
| CAATCGTG | -0.131 |
| AGGAAATA | -0.254 |
| GCCAGGGC | 0.0207 |
| CGCTGGGC | 0.169 |
| CTAGGGGC | -0.0743 |
| ACCGGCCT | 0.0746 |
| ATAGTTGG | -0.182 |

Series 4 — target: MAFK, bZIP domain (human); method: DHFR protein complementation; medium: yeast; baseline: wild-type JUN-FOS pair; direction: higher = stronger binding
Notes: single substitutions, most at no-binding floor
Starting sequence: JUN, bZIP domain (human); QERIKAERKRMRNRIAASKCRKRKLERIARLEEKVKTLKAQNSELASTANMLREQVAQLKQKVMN; partner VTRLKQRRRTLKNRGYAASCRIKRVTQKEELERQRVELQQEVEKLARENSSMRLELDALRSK
| Substitution | binding fitness |
| --- | --- |
| R30C | -1.31 natural log |
| Q41V | -1.46 natural log |
| A29P | -1.49 natural log |
| A46L | -1.5 natural log |
| L38P | -1.49 natural log |
| V56E | -1.5 natural log |
| M51T | -1.38 natural log |
| S47K | -1.34 natural log |
| V35Q | -1.46 natural log |
| N42T | -1.45 natural log |
| A40T | -1.46 natural log |
| L38H | -1.49 natural log |
| L52C | -1.53 natural log |
| I28V | -1.36 natural log |
| A40M | -1.48 natural log |
| E32C | -1.51 natural log |
| L59S | -1.53 natural log |
| A46W | -1.55 natural log |

Series 5 — target: CCNE1, cyclin fold, Cln2 fusion (human); method: yeast growth competition, sequencing; medium: yeast; notes: weak parent motif; baseline: not given; direction: higher = stronger binding
Starting sequence: WEE1 docking peptide (human); CTLRQKLIFSPCS
| Substitution | normalised enrichment score |
| --- | --- |
| CTLRAKLIFSPCS [Q5A] | 0.86 |
| CTLRQKLAFSPCS [I8A] | 0.475 |
| CTARQKLIFSPCS [L3A] | 0.911 |
| CALRQKLIFSPCS [T2A] | 0.667 |
| CTLRQALIFSPCS [K6A] | 0.291 |
| CTLRQKLIASPCS [F9A] | -0.0588 |
| ATLRQKLIFSPCS [C1A] | 0.484 |

Excerpt of the above (series 4):
| Substitution | binding fitness |
| --- | --- |
| R30C | -1.31 natural log |
| E32C | -1.51 natural log |
| N42T | -1.45 natural log |
| I28V | -1.36 natural log |
| Q41V | -1.46 natural log |
| L52C | -1.53 natural log |
| A46L | -1.5 natural log |
